Measured values collected from several papers.
Numbers after ± are the reported error.
TACR1: Substance-P receptor (TACR1, Homo sapiens, UniProt P25103)
Sequence of UniProt P25103 (whole entry, looked up): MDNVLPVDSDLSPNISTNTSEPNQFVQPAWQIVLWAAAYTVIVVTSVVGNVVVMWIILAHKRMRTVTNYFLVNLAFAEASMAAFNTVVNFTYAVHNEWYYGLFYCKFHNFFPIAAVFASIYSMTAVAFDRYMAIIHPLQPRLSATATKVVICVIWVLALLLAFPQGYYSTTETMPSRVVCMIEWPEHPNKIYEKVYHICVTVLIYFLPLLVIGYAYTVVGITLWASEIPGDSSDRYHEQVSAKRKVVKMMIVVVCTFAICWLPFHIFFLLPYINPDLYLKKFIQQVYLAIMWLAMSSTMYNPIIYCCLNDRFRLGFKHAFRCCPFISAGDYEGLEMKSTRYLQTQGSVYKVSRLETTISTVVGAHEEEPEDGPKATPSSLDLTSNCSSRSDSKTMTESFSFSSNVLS

target	test	test system	setting	how to read	endpoint	value	SMILES
TACR1	agonist response, antagonist	human cells	10 µM, NK1 antagonist	–	inhibition	32%	CNC(=O)C[C@H](Cc1ccc(C#N)cc1)NC(=O)c1cc(-c2ccc(CN[C@H](C)c3ccc(C)cc3)o2)ccc1Cl
TACR1	ligand displacement, radioligand	–	75 µM	–	inhibition	11%	C[Si](C)(C)C[C@@H](CN)CC(=O)O
TACR1	cell-free assay	–	1 µM	–	inhibition	-12.2%	COc1ccc(S(=O)(=O)N2CCc3ccccc3C2)cc1N1CCN(C(=O)c2ccc(F)cc2C(F)(F)F)CC1
TACR1	cell-free assay	–	10 µM	–	inhibition	0%	Cc1[nH]nc2c1N=C(c1ccccc1Cl)c1cnc(N3CCOCC3)cc1N2
TACR1	ligand binding, 19F-NMR	LMNG/CHS micelles	80 µM, pH 7.5, 298 K, mtfF-labelled SP variants	–	population	~5%	CSCC[C@H](NC(=O)[C@H](CC(C)C)NC(=O)CNC(=O)[C@H](Cc1ccccc1)NC(=O)[C@H](Cc1cccc(C(F)(F)F)c1)NC(=O)[C@@H](N)CCC(N)=O)C(N)=O
TACR1	ligand displacement, radioligand	–	1 µM	–	inhibition	10%	O=C1c2sc(-c3ccc(N4CCC(F)C4)nc3F)nc2CCN1c1cccnc1 (centres unmarked)
Substance-P receptor, with miniGs/q (TACR1, Homo sapiens, UniProt P25103)	miniGs/q recruitment, BRET	HEK293	30 min	relative to: 10 µM substance P	Emax	85 ± 1%	CSCC[C@H](NC(=O)[C@H](CC(C)C)NC(=O)CNC(=O)[C@@H](NC(=O)[C@H](Cc1ccccc1)NC(=O)[C@H](CO)NC(=O)[C@H](CC(=O)O)NC(=O)[C@@H](NC(=O)[C@H](CCCCN)NC(=O)[C@@H](N)Cc1c[nH]cn1)[C@@H](C)O)C(C)C)C(N)=O
TACR1	ligand displacement, radioligand	–	10 µM	–	inhibition	7%	COCC(=O)N1CCc2cc(-c3csc(NC(=O)c4cc(OC)cc(OC)c4)n3)ccc21
